{"data": "Assay results collected from several papers", "CDKL2": "Cyclin-dependent kinase-like 2 (CDKL2, Homo sapiens, UniProt Q92772)", "sequence of UniProt Q92772 (whole entry, looked up)": "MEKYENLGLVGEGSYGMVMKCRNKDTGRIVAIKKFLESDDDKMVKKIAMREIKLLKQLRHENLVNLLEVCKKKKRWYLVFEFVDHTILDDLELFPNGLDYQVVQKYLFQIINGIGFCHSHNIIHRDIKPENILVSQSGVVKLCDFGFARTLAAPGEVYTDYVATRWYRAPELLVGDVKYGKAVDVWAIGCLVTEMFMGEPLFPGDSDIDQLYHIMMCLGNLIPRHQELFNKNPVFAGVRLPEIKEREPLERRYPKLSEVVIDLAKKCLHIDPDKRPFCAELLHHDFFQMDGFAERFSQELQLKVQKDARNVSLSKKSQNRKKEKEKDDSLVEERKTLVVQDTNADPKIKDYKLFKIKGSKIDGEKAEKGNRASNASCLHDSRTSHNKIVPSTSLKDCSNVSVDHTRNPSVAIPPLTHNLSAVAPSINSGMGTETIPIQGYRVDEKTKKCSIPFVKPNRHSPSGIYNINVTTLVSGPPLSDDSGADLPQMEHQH", "sequence of UniProt Q9Y2H1 (whole entry, looked up)": "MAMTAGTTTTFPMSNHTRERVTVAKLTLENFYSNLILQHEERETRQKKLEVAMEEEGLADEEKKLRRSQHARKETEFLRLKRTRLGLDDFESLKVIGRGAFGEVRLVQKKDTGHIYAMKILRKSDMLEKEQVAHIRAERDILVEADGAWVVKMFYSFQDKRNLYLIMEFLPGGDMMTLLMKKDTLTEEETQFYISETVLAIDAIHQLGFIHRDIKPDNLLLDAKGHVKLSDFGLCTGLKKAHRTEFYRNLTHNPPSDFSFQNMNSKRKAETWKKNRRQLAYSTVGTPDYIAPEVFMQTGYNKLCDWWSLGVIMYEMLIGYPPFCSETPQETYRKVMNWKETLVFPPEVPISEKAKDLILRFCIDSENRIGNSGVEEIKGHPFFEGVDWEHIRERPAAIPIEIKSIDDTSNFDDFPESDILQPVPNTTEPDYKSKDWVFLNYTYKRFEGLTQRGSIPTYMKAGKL"}
{"Compound": "[2H]c1c([2H])c([C@]2([2H])CCCN2C(=O)C(C)(C)Oc2ccc3cn[nH]c3c2)c([2H])c([2H])c1C([2H])([2H])[2H]", "tested on": "STK38L (Homo sapiens, UniProt Q9Y2H1)", "assay": "binding, competition with immobilised ligand", "setting": "1 µM", "quantity": "remaining binding", "value": "94%"}
{"Compound": "N.N.[Cl][Pt][Cl]", "tested on": "Pfeiffer", "assay": "cell growth or viability, ATP luminescence", "setting": "10 µM, 72 h", "quantity": "inhibition", "value": "100%"}
{"Compound": "CC(=O)N1C(=CNc2cccc(Cc3ccccc3)c2)C(=O)c2cccnc21", "tested on": "unidentified influenza virus", "assay": "viral replication, inhibitor", "system": "MDCK, PR/8", "quantity": "IC50", "value": "120 µM"}
{"Compound": "CCOC(=O)C1=C[C@@H](OC(CC)CC)[C@H](NC(C)=O)[C@@H](N)C1", "tested on": "Influenza A virus", "assay": "viral replication", "system": "MDCK, H3N2", "quantity": "IC50", "value": "1.63 µg/mL"}
{"Compound": "Cc1nn(C)cc1-c1nc2c(N3CCN(Cc4ccc(Cl)cc4)CC3)c(Cl)cnc2[nH]1", "tested on": "CDKL2", "assay": "binding, competition with immobilised ligand", "setting": "1 µM", "quantity": "remaining binding", "value": "29%"}
{"Compound": "NC(=O)c1ncn([C@@H]2O[C@H](CO)[C@@H](O)[C@H]2O)n1", "tested on": "Influenza A virus", "assay": "viral replication", "system": "MDCK, H3N2", "quantity": "IC50", "value": "1.92 µg/mL"}
{"Compound": "CCCCCCC#Cc1cncc(-c2nnc(SCc3cc([N+](=O)[O-])cc([N+](=O)[O-])c3)n2C2CC2)c1", "tested on": "Mycobacterium tuberculosis", "assay": "microbial growth", "system": "ERDMAN", "quantity": "IC50", "value": "0.95 µM"}
{"Compound": "Nc1ncc(-c2nc(N3CCOCC3)nc(N3CCOCC3)n2)c(C(F)F)n1", "tested on": "CDKL2", "assay": "binding, competition with immobilised ligand", "setting": "10 µM", "quantity": "remaining binding", "value": "99%"}
{"Compound": "CCCCCCC(=O)NCc1c(O)c(=O)cc(C)n1C", "tested on": "Pseudomonas aeruginosa", "assay": "microbial growth", "system": "PAO1", "quantity": "IC50", "value": "3.66 µM"}
{"Compound": "Nc1c(C(=O)N2CCOCC2)sc2ncccc12", "tested on": "Mycobacterium tuberculosis", "assay": "microbial growth", "system": "H37RV", "quantity": "IC50", "value": "> 100 µM"}
{"Compound": "C#CCCCCC(=O)NCc1c(O)c(=O)cc(C)n1C", "tested on": "Pseudomonas aeruginosa", "assay": "microbial growth", "system": "PAO1", "quantity": "IC50", "value": "> 100 µM"}
{"Compound": "COc1ccc(-c2cc(C(F)(F)F)c3c(N)c(C(=O)N4C5CCCC4COC5)sc3n2)cc1", "tested on": "Mycobacterium tuberculosis", "assay": "microbial growth", "system": "H37RV", "quantity": "IC50", "value": "> 100 µM"}
